Assay results from different studies.
Numbered parts are unrelated; each lists some results of a single study.

Set 1
Substance: PhoQ, residues 284 288 289 292 302 303 TNSAEL
Technique: Sort-seq
Refers to: YFP reporter
Matrix: E. coli
Notes: PhoQ-PhoP variant library
With: 10 µM Mg2+
Reference: high Mg2+ state
Reading: higher = stronger signaling
Measurement: fold induction
PhoP, residues 12 14 15 18 19 TQAML (Escherichia coli, UniProt P23836): 16.9
PhoP, residues 12 14 15 18 19 NQCAL (Escherichia coli, UniProt P23836): 12.3
PhoP, residues 12 14 15 18 19 LHTVL (Escherichia coli, UniProt P23836): 24.9

Set 2
Target: Centromere-binding protein 1, full length, N-terminal tag (CBF1, Saccharomyces cerevisiae, UniProt P17106, residues 1-351)
Chain of UniProt P17106 (whole entry, looked up): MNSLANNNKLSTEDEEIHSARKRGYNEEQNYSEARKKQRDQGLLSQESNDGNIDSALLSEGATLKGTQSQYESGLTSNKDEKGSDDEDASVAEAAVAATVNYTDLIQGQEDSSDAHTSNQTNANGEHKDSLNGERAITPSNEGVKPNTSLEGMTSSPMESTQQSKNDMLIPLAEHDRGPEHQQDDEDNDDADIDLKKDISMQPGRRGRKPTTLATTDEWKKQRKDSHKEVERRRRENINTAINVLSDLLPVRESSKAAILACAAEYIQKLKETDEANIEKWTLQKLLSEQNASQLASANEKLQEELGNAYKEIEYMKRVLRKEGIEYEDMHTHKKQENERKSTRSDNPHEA
Technique: protein-binding microarray
Form: double-stranded DNA, one strand shown
Matrix: in vitro
Tested at: 0.8 µM
Notes: whole 60-bp probe, no competitor
Reading: higher = stronger binding
Measurement: fluorescence intensity
GAACTCGATCATACCAACGTCACGTGTAAAGCTTAGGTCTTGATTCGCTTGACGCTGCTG: 12900 a.u.
CTAGAAAGCATTCTTCACGCCATATTATGATCATTCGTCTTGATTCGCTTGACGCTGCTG: 539 a.u.
GAAGGCGGCAACCTGGGTGTCACCGAATAACGTTAGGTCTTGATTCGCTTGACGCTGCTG: 463 a.u.
GAAGAACATCATCGTCACCATATCACTGAGAAATAGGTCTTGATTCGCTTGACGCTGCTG: 596 a.u.
CTAACACATGCGCTGCACGTGCGGCCGGAACAATTCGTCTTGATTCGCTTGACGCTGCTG: 7090 a.u.
CTATTTACTCTGTAATAGCTGACGATTCTTCAGTTCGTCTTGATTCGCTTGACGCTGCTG: 498 a.u.
GAAAATCAAACTGTTTACGTGACATTGTACAATTAGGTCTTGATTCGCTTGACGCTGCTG: 613 a.u.

Set 3
Target: RNA binding protein fox-1 homolog 2, RRM domain, GST-SBP tag (RBFOX2, Homo sapiens, UniProt O43251-10, residues 100-194)
Technique: RNA Bind-n-Seq
Form: RNA
Matrix: in vitro
Tested at: 365 nM
Notes: natural RNA segment, single round, ends assumed
Reference: no-protein control
Reading: higher = stronger binding
Measurement: RBNS enrichment (R)
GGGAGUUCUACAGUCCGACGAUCGCUAAUUGUACAUAUCAAUAUACAUUUAAAAUCUGGUAACACUGGUUAAAUAGCCCUUGAUGACUUUUCAUGUGGCAUGAGAGGGAUAUGCUUAUAAAGCUUAAUUCUGAUGGAAUUCUCGGGUGCCAA: 0.492
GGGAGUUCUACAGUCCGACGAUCCUUUUUUUCUUUUUUGCCUUUUAUUCCUUUAAAAUUUCGCCUGGCAAAAAAUAAAUAAAUGGAACUAUCACUUUAUAAGAAUCAUUUUCUAGUAAUGCAAACAAAUUAUUUGGAAUUCUCGGGUGCCAA: 1.23
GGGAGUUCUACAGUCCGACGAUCCACCGCACACGCUGUCGUCUUUUUUUCACAAGCUCAAUUGUUACUUUUCUCUGCUUCCUCAGCCCAGGAAGAACUUGUGUUGCAUUGGCUGUGAGAGCGGGAUGGGGACGUGGAAUUCUCGGGUGCCAA: 0.761
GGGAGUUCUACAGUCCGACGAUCCCAAACUCUCUUUCCCCAUUUCUAUCUCCCAGCCCAGUCACAAAAAUACUCAGCUCCAUCAAGAGGAAUUGUGUCUAAGAGGAUACCCCUGUUAAUCUCCUUUUUUCUUGUGGAAUUCUCGGGUGCCAA: 0.924
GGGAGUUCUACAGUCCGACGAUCGAGGGUUAUUUGCUUUUUUAUCUUCCUGGCAUAAUUUCCAUUUUAUUCUUCUGAGUGUCUAUGUUAACUUCCCUCUAUCCCGCUUAUAAAAAAAUUCUCCAACAAAAAUAUGGAAUUCUCGGGUGCCAA: 0.647

Set 4
Target: Interferon regulatory factor 5, full length, phosphomimetic (IRF5, Homo sapiens, UniProt Q13568-2, residues 1-514, K96S/S451D/S453D/S456D/S462D)
Technique: protein-binding microarray
Form: double-stranded DNA, one strand shown
Matrix: in vitro
Tested at: 250 nM
Notes: 60-bp whole probe
With: salmon DNA 0.4 mg/ml
Reference: random background probes
Reading: higher = stronger binding
Measurement: log fluorescence
All sequences stand within: GCCTAGCAC … GTCTTGATTCGCTTGACGCTGCTG
CTCTGCTTGTGTCTGGGCTTGTGCTAG: -0.505 z-score
GACGATATCGGGTCTCGAGACGTGCTA: 1.49 z-score
GAGGGTTTCCTTTTCCTGACGTGCTAG: 0.61 z-score
TCACTTCTCCCTTTCAGTTTGTGCTAG: 1.95 z-score
AGCCTGGCCAAGCTCACAGCGTGCTAG: -1.24 z-score
TTAGGTTTCCTACTGCTTGAGTGCTAG: 0.511 z-score
GACGGATTGCTTCTCCTGACGTGCTAG: -0.163 z-score
GACGATATCATACTGGAGACGTGCTAG: 0.483 z-score
TTAGGACTGGACTTCCGGTTAGTGCTA: 0.568 z-score

Excerpt of the above (set 4):
GAGGGTTTCCTTTTCCTGACGTGCTAG: 0.61 z-score
